Measurements pooled from the literature.
Protocols differ between the studies behind these lines. “And” joins repeats or separate records; there may be more than shown.

CCCCCCCCCCCCCCCC(=O)N[C@@H](CSCC(COC(=O)CCCCCCCCCCCCCCC)OC(=O)CCCCCCCCCCCCCCC)C(=O)N[C@@H](CO)C(=O)N[C@@H](CCCCN)C(=O)N[C@@H](CCCCN)C(=O)N[C@@H](CCCCN)C(=O)N[C@@H](CCCCN)C(=O)O (some centres unmarked) — viability (HFF-1; 0.1 µg/mL, 48 h): 95%
Cc1ccc(OCCN(C)C)cc1C(=O)N[C@H](C)c1cc(-c2ccc(C#N)nc2)nc2ccccc12 — viability (Vero E6; 3.906 µM): 102% and 109%
O=c1n(CCNCCOS(=O)(=O)c2ccccc2)c(=O)n(S(=O)(=O)c2ccccc2)c(=O)n1S(=O)(=O)c1ccccc1 — viability (HUVEC; cell growth or viability, MTT; 100 µg/mL, 72 h): 13.3%
CCOc1ccc(CN2CC[C@H]2C(=O)NC)cc1-c1cccc(C(=O)NC[C@@H]2COC(C)(C)O2)c1 — viability (Huh-7-ACE2; CellTiter-Glo; 0.195 µM, 48 h, unit not given; relative to: DMSO): 0.933 and 1.02 and 0.955
Cc1ccc(OCCN(C)C)cc1C(=O)N[C@H](C)c1cc(-c2ccn(C)n2)nc2ccccc12 — viability (Vero E6; 250 µM): 0.225% and 0.449% and 0%
CNC(=O)C[C@H](Cc1ccncc1)NC(=O)[C@@H](Cc1cccc(Br)c1)NC(=O)[C@@H](N)Cc1ccsc1 — viability (Huh-7-ACE2; CellTiter-Glo; 0.0061 µM, 48 h, unit not given; relative to: DMSO): 1.05 and 1.04
NC(=S)N/N=C/c1ccc(OCc2cccc(F)c2)cc1 — viability (IMR-32; MTT; 500 µg/mL, 24 h; relative to: untreated control): 19.1%
CNC(=O)C[C@H](Cc1ccc(F)cc1)NC(=O)[C@@H](Cc1ccc(Cl)cc1Cl)NC(=O)[C@H](N)Cc1ccccc1[N+](=O)[O-] — viability (Huh-7-ACE2; CellTiter-Glo; 0.000763 µM, 48 h, unit not given; relative to: DMSO): 0.982 and 1.05 and 0.955
CCCCCCCCCCCCCCCC(=O)OCC(CSC[C@H](N)C(=O)NCC(=O)N[C@@H](CC(=O)O)C(=O)N1CCC[C@H]1C(=O)N[C@@H](CCCCN)C(=O)N[C@@H](Cc1c[nH]cn1)C(=O)N1CCC[C@H]1C(=O)N[C@@H](CCCCN)C(=O)N[C@@H](CO)C(=O)N[C@@H](Cc1ccccc1)C(=O)O)OC(=O)CCCCCCCCCCCCCCC (some centres unmarked) — viability (HFF-1; 1 µg/mL, 48 h): 89.9%
Cc1ccc(N(C)C2(C)CN(C)C2)cc1C(=O)N[C@H](C)c1cc(-c2cnn(C)c2)nc2ccccc12 — viability (Vero E6; 125 µM): 52.6% and 64.1% and 50.3%
CCCCCCCCCCCCCCCC(=O)OCC(CSC[C@H](N)C(=O)N[C@@H](CO)C(=O)N[C@@H](CCCCN)C(=O)N[C@@H](CCCCN)C(=O)N[C@@H](CCCCN)C(=O)N[C@@H](CCCCN)C(=O)O)OC(=O)CCCCCCCCCCCCCCC (some centres unmarked) — viability (HFF-1; 0.1 µg/mL, 48 h): 90%
CCn1ccc(-c2cc(C(C)NC(=O)c3cc(N4CC5CC4CN5C)ccc3C)c3ccccc3n2)n1 (centres unmarked) — viability (Vero E6; 7.812 µM): 103% and 97.1% and 99.2%
CNC(=O)C[C@H](Cc1ccccc1)NC(=O)[C@@H](Cc1ccc(Cl)cc1Cl)NC(=O)[C@H](N)Cc1ccccc1C#N — viability (Huh-7-ACE2; CellTiter-Glo; 12.5 µM, 48 h, unit not given; relative to: DMSO): 0.962 and 1.01 and 0.943
NC(=S)N/N=C/c1ccc(OCc2ccccc2)cc1 — viability (IMR-32; MTT; 200 µg/mL, 24 h; relative to: untreated control): 57.4%
CNC(=O)C[C@H](Cc1ccc(F)cc1)NC(=O)[C@@H](Cc1ccc(Cl)cc1Cl)NC(=O)[C@H](N)Cc1ccccc1C#N — viability (Huh-7-ACE2; CellTiter-Glo; 0.195 µM, 48 h, unit not given; relative to: DMSO): 1.13 and 1.08 and 0.941
NC(=O)N/N=C/c1ccc(OCc2cccc(F)c2)cc1 — viability (IMR-32; MTT; 500 µg/mL, 24 h; relative to: untreated control): 38.1%
Cc1ccc(OC[C@@H]2CCN2C)cc1C(=O)N[C@H](C)c1cc(-c2cnn(C)c2)nc2ccccc12 — viability (African green monkey cells; 31.25 µM): 93.8%

Some of these lines once more:
CCn1ccc(-c2cc(C(C)NC(=O)c3cc(N4CC5CC4CN5C)ccc3C)c3ccccc3n2)n1 (centres unmarked) — viability (Vero E6; 7.812 µM): 103% and 97.1% and 99.2%
CNC(=O)C[C@H](Cc1ccccc1)NC(=O)[C@@H](Cc1ccc(Cl)cc1Cl)NC(=O)[C@H](N)Cc1ccccc1C#N — viability (Huh-7-ACE2; CellTiter-Glo; 12.5 µM, 48 h, unit not given; relative to: DMSO): 0.962 and 1.01 and 0.943
